Experimental data from different studies.
Numbers after ± are the reported error.
Target: Sodium-dependent dopamine transporter (Slc6a3, Rattus norvegicus, UniProt P23977)
Chain of UniProt P23977 (whole entry, looked up): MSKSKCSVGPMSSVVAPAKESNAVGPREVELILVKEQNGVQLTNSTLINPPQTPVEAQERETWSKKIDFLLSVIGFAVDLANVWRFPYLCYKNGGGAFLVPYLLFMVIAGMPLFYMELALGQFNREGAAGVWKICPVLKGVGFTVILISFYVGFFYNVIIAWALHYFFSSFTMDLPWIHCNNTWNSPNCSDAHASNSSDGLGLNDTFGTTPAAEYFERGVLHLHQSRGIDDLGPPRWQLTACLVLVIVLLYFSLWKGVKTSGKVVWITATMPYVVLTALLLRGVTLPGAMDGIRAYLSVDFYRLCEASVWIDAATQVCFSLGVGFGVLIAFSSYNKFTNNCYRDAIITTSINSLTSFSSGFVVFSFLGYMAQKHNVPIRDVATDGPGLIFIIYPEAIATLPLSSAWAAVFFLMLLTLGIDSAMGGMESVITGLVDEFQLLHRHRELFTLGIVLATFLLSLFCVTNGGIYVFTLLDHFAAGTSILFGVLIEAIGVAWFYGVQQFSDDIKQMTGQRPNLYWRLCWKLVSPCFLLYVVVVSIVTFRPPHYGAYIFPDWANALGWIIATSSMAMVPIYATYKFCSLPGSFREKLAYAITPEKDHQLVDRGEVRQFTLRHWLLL

Compound = C[C@@H]1N=C(N)O[C@H]1c1ccc2c(c1)OCO2 (racemic); test = substrate release, releaser; test system = rat brain synaptosomes; setting = added: [3H]MPP+ 9 nM; measurement = EC50; result = 36.2 ± 3.6 nM
Compound = CCCN(CCC)CCc1c[nH]c2ccc(OC)cc12; test = inhibitor; measurement = IC50; result = 17 ± 2.19 µM
Compound = CNC(C)Cc1ccc2c(c1)OCO2 (single isomer, unassigned; (+)); test = substrate release, releaser; test system = rat brain synaptosomes; setting = added: [3H]MPP+ 9 nM; measurement = EC50; result = 143 ± 16 nM
Compound = Cc1ccccc1N=C(N)Nc1ccccc1C; test = ligand displacement, radioligand; measurement = Ki; result = 93.5 µM
Compound = CCC[C@@H](C(=O)c1ccccc1)N1CCCC1; test = transporter uptake, inhibitor, radiometric; measurement = IC50; result = 0.007 µM
Compound = CNC(C)C(=O)c1cccc(Cl)c1 (centres unmarked); test = substrate release, releaser; test system = rat striatal synaptosomes; setting = added: [3H]MPP+; measurement = EC50; result = 26 nM
Compound = CC(C)N(C)CCc1c[nH]c2ccccc12; test = inhibitor; measurement = IC50; result = > 10 µM
Compound = CN1CCN(CCc2ccc(Cl)c(Cl)c2)CC1; test = ligand displacement, radioligand; measurement = Ki; result = 8.02 µM
Compound = CCN(CC)CCc1c[nH]c2ccc(OC)cc12; test = inhibitor; measurement = IC50; result = > 10 µM
Compound = CNC(C)C(=O)c1ccccc1 (centres unmarked); test = substrate release, releasing agent; test system = rat striatal synaptosomes; setting = added: [3H]MPP+; measurement = EC50; result = 25 nM
Compound = CNC(C)Cc1ccc2occc2c1 (centres unmarked); test = transporter-mediated release, substrate; test system = rat striatal synaptosomes; setting = 30 min, added: [3H]MPP+; measurement = EC50; result = 41 ± 3 nM
Compound = Cc1ccc(C2OCCNC2C)cc1 (centres unmarked); test = inhibitor; measurement = IC50; result = 1.93 µM
Compound = Cc1ccc([C@@H]2OC(N)=N[C@H]2C)cc1 (relative stereo); test = substrate release, releaser; test system = rat brain synaptosomes; setting = added: [3H]MPP+ 9 nM; measurement = EC50; result = 24.4 ± 2.7 nM
Compound = CCCNC(C)C(=O)c1ccccc1 (centres unmarked); test = dopamine uptake, inhibitor; test system = rat brain synaptosomes; setting = added: [3H]dopamine; measurement = IC50; result = > 10 µM
Compound = C[C@@H]1N=C(N)O[C@@H]1c1ccccc1 (racemic); test = substrate release, releaser, [3H]MPP+ release; test system = rat brain synaptosomes; setting = added: [3H]MPP+ 9 nM; measurement = EC50; result = 1.7 ± 0.2 nM
Compound = CCCC(C(=O)c1ccc2c(c1)OCO2)N1CCCC1 (racemic); test = transporter uptake, inhibitor, radiometric; measurement = IC50; result = 0.00485 µM
Compound = CON(C)C(C)C(=O)c1ccc(C)cc1 (centres unmarked); test = dopamine transport; measurement = IC50; result = 6.09 µM
Compound = CNC(C)C(=O)c1cccc(Cl)c1 (centres unmarked); test = dopamine release, releaser; test system = rat brain synaptosomes; measurement = EC50; result = 46.8 ± 4 nM
Compound = CC(C)N(CCc1c[nH]c2ccccc12)C(C)C; test = inhibitor; measurement = IC50; result = 4.79 ± 0.416 µM
Compound = CN(C)CCN(C)CCc1ccc(Cl)c(Cl)c1; test = ligand displacement, radioligand; measurement = Ki; result = 3.22 µM

Repeated from above:
Compound = Cc1ccc(C2OCCNC2C)cc1 (centres unmarked); test = inhibitor; measurement = IC50; result = 1.93 µM
Compound = Cc1ccc([C@@H]2OC(N)=N[C@H]2C)cc1 (relative stereo); test = substrate release, releaser; test system = rat brain synaptosomes; setting = added: [3H]MPP+ 9 nM; measurement = EC50; result = 24.4 ± 2.7 nM
Compound = CCCNC(C)C(=O)c1ccccc1 (centres unmarked); test = dopamine uptake, inhibitor; test system = rat brain synaptosomes; setting = added: [3H]dopamine; measurement = IC50; result = > 10 µM
